Results of several laboratories.
Each numbered part is a random draw from the data of one study; scales do not carry over between parts.
Sequence of UniProt O14578 (whole entry, looked up): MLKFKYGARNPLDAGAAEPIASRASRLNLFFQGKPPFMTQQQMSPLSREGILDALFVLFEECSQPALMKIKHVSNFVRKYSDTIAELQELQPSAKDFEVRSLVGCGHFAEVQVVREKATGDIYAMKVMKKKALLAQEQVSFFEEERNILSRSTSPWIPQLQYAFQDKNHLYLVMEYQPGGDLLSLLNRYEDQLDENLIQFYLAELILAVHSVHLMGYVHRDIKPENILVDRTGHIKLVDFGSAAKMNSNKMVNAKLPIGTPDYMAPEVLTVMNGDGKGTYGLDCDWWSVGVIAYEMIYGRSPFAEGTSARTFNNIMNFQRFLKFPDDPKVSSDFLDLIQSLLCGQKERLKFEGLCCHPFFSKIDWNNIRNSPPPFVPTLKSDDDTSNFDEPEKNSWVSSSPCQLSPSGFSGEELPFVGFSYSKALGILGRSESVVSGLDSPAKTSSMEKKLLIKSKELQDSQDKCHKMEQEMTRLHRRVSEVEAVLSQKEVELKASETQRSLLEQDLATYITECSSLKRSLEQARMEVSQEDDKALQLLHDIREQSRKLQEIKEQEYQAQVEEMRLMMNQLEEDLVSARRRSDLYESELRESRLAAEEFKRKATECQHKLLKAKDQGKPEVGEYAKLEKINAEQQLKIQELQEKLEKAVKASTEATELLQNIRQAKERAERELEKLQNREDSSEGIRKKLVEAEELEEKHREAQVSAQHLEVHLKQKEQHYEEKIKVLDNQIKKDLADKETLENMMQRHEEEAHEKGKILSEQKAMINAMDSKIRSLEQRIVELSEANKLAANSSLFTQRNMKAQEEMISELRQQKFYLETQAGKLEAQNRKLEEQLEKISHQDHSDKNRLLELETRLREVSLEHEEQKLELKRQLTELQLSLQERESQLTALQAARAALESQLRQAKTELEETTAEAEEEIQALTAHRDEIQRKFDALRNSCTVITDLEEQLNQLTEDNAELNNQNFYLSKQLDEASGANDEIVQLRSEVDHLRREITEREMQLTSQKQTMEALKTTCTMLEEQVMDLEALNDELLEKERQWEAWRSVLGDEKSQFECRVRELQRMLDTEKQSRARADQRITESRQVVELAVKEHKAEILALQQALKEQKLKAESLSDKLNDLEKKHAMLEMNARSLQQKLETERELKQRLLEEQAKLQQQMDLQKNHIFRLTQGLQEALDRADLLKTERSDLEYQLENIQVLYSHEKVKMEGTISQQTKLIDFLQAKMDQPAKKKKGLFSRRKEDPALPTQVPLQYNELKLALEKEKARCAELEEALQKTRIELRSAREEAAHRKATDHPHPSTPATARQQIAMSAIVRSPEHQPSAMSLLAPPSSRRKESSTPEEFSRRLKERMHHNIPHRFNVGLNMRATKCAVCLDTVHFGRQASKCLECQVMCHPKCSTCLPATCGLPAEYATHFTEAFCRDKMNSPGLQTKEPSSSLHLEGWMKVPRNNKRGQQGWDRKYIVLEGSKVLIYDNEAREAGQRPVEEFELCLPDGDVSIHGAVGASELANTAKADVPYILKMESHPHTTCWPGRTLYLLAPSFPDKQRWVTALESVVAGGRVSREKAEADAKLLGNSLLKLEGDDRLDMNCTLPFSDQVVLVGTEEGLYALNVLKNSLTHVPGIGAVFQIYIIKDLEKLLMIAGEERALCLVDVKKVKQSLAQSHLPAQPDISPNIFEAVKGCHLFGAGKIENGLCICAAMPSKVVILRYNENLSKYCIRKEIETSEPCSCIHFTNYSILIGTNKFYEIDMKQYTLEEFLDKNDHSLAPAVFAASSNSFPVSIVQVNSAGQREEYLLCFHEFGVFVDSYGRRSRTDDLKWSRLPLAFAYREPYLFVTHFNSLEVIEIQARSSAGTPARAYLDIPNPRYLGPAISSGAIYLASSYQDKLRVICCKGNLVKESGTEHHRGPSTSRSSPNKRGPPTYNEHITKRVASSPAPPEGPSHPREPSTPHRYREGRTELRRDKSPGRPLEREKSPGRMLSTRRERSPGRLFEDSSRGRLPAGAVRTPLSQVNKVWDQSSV
Sequence of UniProt P48729 (whole entry, looked up): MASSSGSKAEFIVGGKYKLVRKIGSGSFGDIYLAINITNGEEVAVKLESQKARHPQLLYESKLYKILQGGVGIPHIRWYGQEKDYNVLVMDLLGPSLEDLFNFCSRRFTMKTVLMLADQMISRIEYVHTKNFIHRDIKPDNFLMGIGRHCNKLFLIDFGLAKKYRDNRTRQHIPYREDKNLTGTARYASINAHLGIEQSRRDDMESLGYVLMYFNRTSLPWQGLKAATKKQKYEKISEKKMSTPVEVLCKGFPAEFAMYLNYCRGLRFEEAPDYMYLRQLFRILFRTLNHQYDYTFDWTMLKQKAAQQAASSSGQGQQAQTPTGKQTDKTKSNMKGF
Sequence of UniProt Q08345 (whole entry, looked up): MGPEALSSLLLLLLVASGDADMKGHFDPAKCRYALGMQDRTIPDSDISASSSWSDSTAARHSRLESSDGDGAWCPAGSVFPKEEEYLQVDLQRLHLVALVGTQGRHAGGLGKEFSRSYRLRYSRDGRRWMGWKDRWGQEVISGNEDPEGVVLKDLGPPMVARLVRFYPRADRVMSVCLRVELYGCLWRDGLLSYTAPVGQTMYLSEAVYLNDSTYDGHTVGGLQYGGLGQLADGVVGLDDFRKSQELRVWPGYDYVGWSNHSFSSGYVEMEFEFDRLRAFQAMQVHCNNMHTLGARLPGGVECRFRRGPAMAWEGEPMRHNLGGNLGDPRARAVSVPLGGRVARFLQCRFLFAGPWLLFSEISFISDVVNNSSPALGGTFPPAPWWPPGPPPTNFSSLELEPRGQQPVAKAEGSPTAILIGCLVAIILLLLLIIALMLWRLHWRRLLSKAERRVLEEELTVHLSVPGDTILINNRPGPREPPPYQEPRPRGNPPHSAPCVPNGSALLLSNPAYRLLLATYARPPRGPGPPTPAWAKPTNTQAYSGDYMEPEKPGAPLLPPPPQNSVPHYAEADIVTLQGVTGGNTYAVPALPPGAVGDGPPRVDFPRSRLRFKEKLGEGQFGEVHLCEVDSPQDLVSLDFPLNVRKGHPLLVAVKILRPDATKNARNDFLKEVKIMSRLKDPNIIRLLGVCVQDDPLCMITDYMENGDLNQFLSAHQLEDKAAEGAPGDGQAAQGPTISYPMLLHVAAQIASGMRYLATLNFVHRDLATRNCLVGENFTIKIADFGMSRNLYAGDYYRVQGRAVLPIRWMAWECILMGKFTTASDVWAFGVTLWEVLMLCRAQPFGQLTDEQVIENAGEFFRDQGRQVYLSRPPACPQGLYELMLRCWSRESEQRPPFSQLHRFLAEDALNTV
Sequence of UniProt P22455 (whole entry, looked up): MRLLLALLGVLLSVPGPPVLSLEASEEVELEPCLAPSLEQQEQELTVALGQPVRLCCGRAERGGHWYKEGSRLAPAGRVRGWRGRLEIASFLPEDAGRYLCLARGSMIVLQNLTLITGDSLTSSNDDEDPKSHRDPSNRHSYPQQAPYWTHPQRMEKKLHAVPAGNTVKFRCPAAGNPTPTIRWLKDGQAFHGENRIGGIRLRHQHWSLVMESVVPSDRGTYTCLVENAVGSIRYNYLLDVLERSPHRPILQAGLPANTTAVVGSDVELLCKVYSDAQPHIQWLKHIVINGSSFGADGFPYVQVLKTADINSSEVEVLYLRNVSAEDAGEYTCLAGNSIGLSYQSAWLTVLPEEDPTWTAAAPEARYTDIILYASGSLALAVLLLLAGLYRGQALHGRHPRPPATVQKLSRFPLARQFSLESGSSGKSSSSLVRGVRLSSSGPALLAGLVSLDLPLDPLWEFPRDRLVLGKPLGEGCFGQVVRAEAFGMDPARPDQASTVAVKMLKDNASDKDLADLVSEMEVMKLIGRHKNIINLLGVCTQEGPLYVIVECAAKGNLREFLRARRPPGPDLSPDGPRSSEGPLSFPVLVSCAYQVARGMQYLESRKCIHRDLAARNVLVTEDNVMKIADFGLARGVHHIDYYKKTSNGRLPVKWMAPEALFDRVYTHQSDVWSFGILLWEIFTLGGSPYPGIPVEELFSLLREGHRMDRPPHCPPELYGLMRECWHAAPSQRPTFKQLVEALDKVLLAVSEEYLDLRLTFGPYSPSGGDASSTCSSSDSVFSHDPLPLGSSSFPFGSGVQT

Series 1 — effect on: enzyme activity; mode: inhibitor; concentration: 10 µM
Target: Calcium/calmodulin-dependent protein kinase type II subunit alpha (CAMK2A, Homo sapiens, UniProt Q9UQM7)
Sequence of UniProt Q9UQM7 (whole entry, looked up): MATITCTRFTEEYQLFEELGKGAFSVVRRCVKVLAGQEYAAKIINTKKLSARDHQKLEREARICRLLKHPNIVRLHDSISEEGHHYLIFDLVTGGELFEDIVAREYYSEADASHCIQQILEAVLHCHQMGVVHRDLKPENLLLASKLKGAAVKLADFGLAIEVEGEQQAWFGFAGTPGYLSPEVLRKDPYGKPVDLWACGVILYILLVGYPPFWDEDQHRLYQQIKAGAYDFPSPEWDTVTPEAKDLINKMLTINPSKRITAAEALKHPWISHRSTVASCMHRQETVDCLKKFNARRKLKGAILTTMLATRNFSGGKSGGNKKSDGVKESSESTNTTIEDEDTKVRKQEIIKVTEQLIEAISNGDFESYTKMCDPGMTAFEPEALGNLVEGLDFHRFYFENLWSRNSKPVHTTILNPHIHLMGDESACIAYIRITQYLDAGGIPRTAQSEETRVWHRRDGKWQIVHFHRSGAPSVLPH
| Structure (SMILES) | inhibition |
| --- | --- |
| CN(C)c1nc(N(C)C)nc(N(C)C)n1 | -3% |
| O=C(O)c1ncccc1O | -8% |
| COc1cc(-c2cc(=O)c3c(O)c(OC)c(O)cc3o2)cc(O)c1OC | 31% |
| CC(=O)c1ccc[nH]1 | 18% |
| O=C(OC1O[C@@H]2COC(=O)c3cc(O)c(O)c(O)c3-c3c(cc(O)c(O)c3O)C(=O)O[C@H]2[C@H](OC(=O)c2cc(O)c(O)c(O)c2)[C@H]1OC(=O)c1cc(O)c(O)c(O)c1)c1cc(O)c(O)c(O)c1 (stereo partly drawn) | -92% |
| CC#CCn1c(N2CCC[C@@H](N)C2)nc2c1c(=O)n(Cc1nc(C)c3ccccc3n1)c(=O)n2C | -1% |
| CC(C)=CCc1c(-c2ccc(O)cc2O)oc2c(CC=C(C)C)c(O)cc(O)c2c1=O | 28% |
| C[C@H]1c2cccc(O)c2C(O)=C2C(=O)[C@]3(O)C(O)=C(C(N)=O)C(=O)[C@@H](N(C)C)[C@@H]3[C@@H](O)[C@@H]21 | -9% |
| CCCCC(=O)OCC(=O)[C@H]1[C@H](C)C[C@H]2[C@@H]3C[C@H](F)C4=CC(=O)C=C[C@]4(C)[C@@]3(F)[C@@H](O)C[C@@]21C | -7% |

Series 2 — effect on: enzyme activity; mode: inhibitor; concentration: 0.5 µM; baseline: control
Target: Serine/threonine-protein kinase 25 (STK25, Homo sapiens, UniProt O00506)
Sequence of UniProt O00506 (whole entry, looked up): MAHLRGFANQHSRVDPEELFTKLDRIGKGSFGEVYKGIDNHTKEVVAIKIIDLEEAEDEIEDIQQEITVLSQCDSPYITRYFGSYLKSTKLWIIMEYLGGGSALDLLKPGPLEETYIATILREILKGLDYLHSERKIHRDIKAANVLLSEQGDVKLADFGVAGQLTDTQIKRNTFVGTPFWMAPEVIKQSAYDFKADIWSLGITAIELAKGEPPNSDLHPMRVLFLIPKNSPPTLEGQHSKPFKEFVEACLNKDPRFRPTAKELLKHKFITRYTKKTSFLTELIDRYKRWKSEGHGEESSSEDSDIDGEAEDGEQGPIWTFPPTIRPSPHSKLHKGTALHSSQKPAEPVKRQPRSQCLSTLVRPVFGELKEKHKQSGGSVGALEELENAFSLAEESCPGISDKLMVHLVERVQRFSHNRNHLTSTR
| SMILES | remaining activity |
| --- | --- |
| Ic1cccc(CSc2nnc(-c3ccncc3)o2)c1 | 96.2% |
| C[C@@H]1CCN(C(=O)CC#N)C[C@@H]1N(C)c1ncnc2[nH]ccc12 | 97.2% |
| O=c1cc(-c2cccc3c2Sc2ccccc2S3)oc(N2CCOCC2)c1 | 99.6% |
| N#C/C(=C\c1ccc(O)c(O)c1)C(=O)NCc1ccccc1 | 101% |
| CCN(CC)C(=O)c1ccc(Nc2nc(OCC3CCCCC3)c3[nH]cnc3n2)cc1 | 85.2% |
| COc1cc2c(cc1OC)-c1[nH]nc(Nc3cccc(F)c3)c1C2 | 103% |
| CN(C)C[C@H]1CCn2c(c(C3=C(c4cn(C)c5ccccc45)C(=O)NC3=O)c3ccccc32)C1 | 96% |
| O=C1C(Cl)=C(N2C(=O)CCC2=O)C(=O)c2ccccc21 | 107% |
| Nc1cccc(-c2cc3c(Oc4cccc(O)c4)ncnc3[nH]2)c1 | 91.6% |
| O=C1c2ccccc2-c2n[nH]c3cccc1c23 | 91% |
| Cc1nc2cc3nc(-c4cccs4)cnc3cc2n1C | 97.3% |
| CCN(CC)CCNC(=O)c1c(C)[nH]c(/C=C2\C(=O)Nc3ccc(Cl)cc32)c1C | 56.1% |
| N#Cc1c(NC(=O)c2cccc3ccccc23)sc2c1CCCC2 | 95.7% |
| COc1cc2ncnc(Nc3cccc(Cl)c3)c2cc1OC | 101% |
| COc1cc2ncnc(Nc3ccc(O)c(Br)c3)c2cc1OC | 99.6% |
| CCOc1nc(NC(=O)Cc2cc(OC)ccc2OC)cc(N)c1C#N | 94.5% |
| c1ccc(-c2[nH]ncc2-c2ccnc3ccccc23)nc1 | 96.9% |
| c1ccc(-c2cnc(Nc3ccc(OCCN4CCCC4)cc3)s2)cc1 | 95.5% |
| O=C(NC(NC(=S)Nc1ccc(F)c([N+](=O)[O-])c1)C(Cl)(Cl)Cl)C(c1ccccc1)c1ccccc1 (stereo not drawn) | 96.2% |
| Cn1nc2c3c(cccc31)C(=O)c1ccccc1-2 | 96.5% |
| O=C(Nc1cccc(Nc2nccc(Nc3cccc(C(F)(F)F)c3)n2)c1)C1CC1 | 98.1% |
| Cc1cc2ncc(-c3ccccc3)nc2cc1C | 92.5% |
| Cc1cn(-c2cc(NC(=O)c3ccc(C)c(Nc4nccc(-c5cccnc5)n4)c3)cc(C(F)(F)F)c2)cn1 | 97.5% |

Series 3 — concentration: 1 µM
SMILES: COc1ccc2[nH]c3c4[nH]c5ccc(OC)cc5c4c4c(c3c2c1)C(=O)NC4=O
| target | assay | setting | how to read | remaining binding [%] |
| --- | --- | --- | --- | --- |
| GRK1 (Homo sapiens, UniProt Q15835) | competitive binding panel | – | baseline: vehicle | 95 |
| CSF1R (Homo sapiens, UniProt P07333) | competitive binding scan | autoinhibited form | – | 59 |
| BMPR1B (Homo sapiens, UniProt O00238) | competitive binding panel | – | baseline: vehicle | 56 |
| MAPK11 (Homo sapiens, UniProt Q15759) | competitive binding | p38-beta | – | 100 |
| CIT (Homo sapiens, UniProt O14578) | competitive binding panel | – | baseline: vehicle | 35 |
| ALK (Homo sapiens, UniProt Q9UM73) | competitive binding panel | – | baseline: vehicle | 55 |
| PHKG2 (Homo sapiens, UniProt P15735) | competitive binding panel | – | baseline: vehicle | 52 |
| MARK1 (Homo sapiens, UniProt Q9P0L2) | competitive binding panel | – | baseline: vehicle | 100 |
| MAP4K1 (Homo sapiens, UniProt Q92918) | competitive binding panel, refers to: HPK1 | – | baseline: vehicle | 90 |
| MAP3K2 (Homo sapiens, UniProt Q9Y2U5) | competitive binding panel | – | baseline: vehicle | 85 |
| PKN2 (Homo sapiens, UniProt Q16513) | competitive binding panel | – | baseline: vehicle | 52 |
| RIOK2 (Homo sapiens, UniProt Q9BVS4) | competitive binding panel | – | baseline: vehicle | 89 |
| SGK3 (Homo sapiens, UniProt Q96BR1) | competitive binding panel | – | baseline: vehicle | 8.1 |

Series 4 — effect on: cell-free assay; technique: competition with immobilised ligand; concentration: 1 µM
Compound: Cc1nc(C2CCN(C(=O)c3ccc(OC(F)(F)F)cc3N)CC2)c2ncc(N3CCN(C)CC3)cc2n1
| target | remaining binding [%] |
| --- | --- |
| MAP2K7 (Homo sapiens, UniProt O14733) | 86 |
| MAP3K14 (Homo sapiens, UniProt Q99558) | 100 |
| FGFR4 (Homo sapiens, UniProt P22455) | 100 |
| PIK3C2B (Homo sapiens, UniProt O00750) | 86 |
| BMX (Homo sapiens, UniProt P51813) | 100 |
| ERBB3 (Homo sapiens, UniProt P21860) | 88 |
| MYLK (Homo sapiens, UniProt Q15746) | 100 |
| TNK2 (Homo sapiens, UniProt Q07912) | 100 |
| HIPK1 (Homo sapiens, UniProt Q86Z02) | 100 |
| MAP2K2 (Homo sapiens, UniProt P36507) | 100 |
| SRPK2 (Homo sapiens, UniProt P78362) | 74 |
| SNRK (Homo sapiens, UniProt Q9NRH2) | 78 |
| DDR1 (Homo sapiens, UniProt Q08345) | 100 |
| DYRK1A (Homo sapiens, UniProt Q13627) | 100 |
| CSNK1A1 (Homo sapiens, UniProt P48729) | 100 |
| PAK2 (Homo sapiens, UniProt Q13177) | 64 |
| Ribosomal protein S6 kinase alpha-2, C-terminal kinase domain (RPS6KA2, Homo sapiens, UniProt Q15349) | 100 |
| CIT (Homo sapiens, UniProt O14578) | 100 |

A few entries again (series 4):
| target | remaining binding [%] |
| --- | --- |
| ERBB3 (Homo sapiens, UniProt P21860) | 88 |
| MYLK (Homo sapiens, UniProt Q15746) | 100 |
| TNK2 (Homo sapiens, UniProt Q07912) | 100 |
| HIPK1 (Homo sapiens, UniProt Q86Z02) | 100 |
| MAP2K2 (Homo sapiens, UniProt P36507) | 100 |
| SRPK2 (Homo sapiens, UniProt P78362) | 74 |
| SNRK (Homo sapiens, UniProt Q9NRH2) | 78 |
| DDR1 (Homo sapiens, UniProt Q08345) | 100 |
| DYRK1A (Homo sapiens, UniProt Q13627) | 100 |
